Results from different studies.
Parts stem from different laboratories: compare values within a part only. Values joined by “and” are separate records of one study, mostly repeats; a detail may differ.
Sequence of UniProt P11247 (whole entry, looked up): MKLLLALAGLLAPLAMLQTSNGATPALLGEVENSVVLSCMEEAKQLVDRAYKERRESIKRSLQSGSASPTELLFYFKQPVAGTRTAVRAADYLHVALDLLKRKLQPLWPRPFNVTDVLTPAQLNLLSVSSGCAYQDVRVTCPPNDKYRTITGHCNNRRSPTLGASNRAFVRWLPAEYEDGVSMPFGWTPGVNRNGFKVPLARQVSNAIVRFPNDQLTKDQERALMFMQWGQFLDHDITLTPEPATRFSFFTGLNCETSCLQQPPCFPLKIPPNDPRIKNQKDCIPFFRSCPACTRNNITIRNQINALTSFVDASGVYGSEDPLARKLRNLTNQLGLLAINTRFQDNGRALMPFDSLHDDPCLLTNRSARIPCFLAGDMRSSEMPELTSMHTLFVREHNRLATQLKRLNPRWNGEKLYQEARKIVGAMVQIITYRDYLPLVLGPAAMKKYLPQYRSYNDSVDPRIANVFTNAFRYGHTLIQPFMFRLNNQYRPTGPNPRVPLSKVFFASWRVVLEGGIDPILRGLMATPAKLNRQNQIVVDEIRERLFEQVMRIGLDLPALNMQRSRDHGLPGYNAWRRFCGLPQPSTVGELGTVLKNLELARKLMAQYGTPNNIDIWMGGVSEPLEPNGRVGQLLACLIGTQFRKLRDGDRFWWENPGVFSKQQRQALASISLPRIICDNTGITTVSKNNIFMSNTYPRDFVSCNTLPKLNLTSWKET

Series 1 — cell line: U-87 MG; tested at: concentration not given; relative to: DMSO
SMILES: CCN1/C(=C/C=C2\CCCC(/C=C/C3=[N+](CC)c4ccccc4C3(C)C)=C2NCCCCCCCCN2CCC(Nc3nc4ccccc4n3Cc3ccc(F)cc3)CC2)C(C)(C)c2ccccc21
assay | log2 fold change
measured: NUP85 mRNA | -0.891
measured: FAAP24 mRNA | -0.835
measured: WASF1 mRNA | 0.804
measured: ATOH8 mRNA | -3.61
measured: FAT4 mRNA | -1.23
measured: ADORA1 mRNA | -3.46
measured: OAS3 mRNA | -1.75
measured: ANKRD22 mRNA | 2.74
measured: ZRANB1 mRNA | 1.09
measured: TMEM109 mRNA | -0.951
measured: DYM mRNA | 0.892

Series 2 — effect on: thermal unfolding; method: differential scanning fluorimetry; tested at: 5.5 µM; reading: higher = more unfolded
SMILES: C[C@@H]1CN(c2ccc(-c3cc(C(=O)NCCOCCOCCOCCOCCNC(=O)/C=C/c4[nH]cc(C(=O)N[C@@H](CC(N)=O)c5ccc(F)c(Cl)c5)c4-c4ccc(Cl)cc4F)ccc3F)cc2NC(=O)c2c[nH]c(=O)cc2C(F)(F)F)C[C@H](C)N1C
WDR5: WD repeat-containing protein 5 (WDR5, Homo sapiens, UniProt P61964)
DCAF1: DDB1- and CUL4-associated factor 1 (DCAF1, Homo sapiens, UniProt Q9Y4B6)
Sequence of UniProt Q9Y4B6 (whole entry, looked up): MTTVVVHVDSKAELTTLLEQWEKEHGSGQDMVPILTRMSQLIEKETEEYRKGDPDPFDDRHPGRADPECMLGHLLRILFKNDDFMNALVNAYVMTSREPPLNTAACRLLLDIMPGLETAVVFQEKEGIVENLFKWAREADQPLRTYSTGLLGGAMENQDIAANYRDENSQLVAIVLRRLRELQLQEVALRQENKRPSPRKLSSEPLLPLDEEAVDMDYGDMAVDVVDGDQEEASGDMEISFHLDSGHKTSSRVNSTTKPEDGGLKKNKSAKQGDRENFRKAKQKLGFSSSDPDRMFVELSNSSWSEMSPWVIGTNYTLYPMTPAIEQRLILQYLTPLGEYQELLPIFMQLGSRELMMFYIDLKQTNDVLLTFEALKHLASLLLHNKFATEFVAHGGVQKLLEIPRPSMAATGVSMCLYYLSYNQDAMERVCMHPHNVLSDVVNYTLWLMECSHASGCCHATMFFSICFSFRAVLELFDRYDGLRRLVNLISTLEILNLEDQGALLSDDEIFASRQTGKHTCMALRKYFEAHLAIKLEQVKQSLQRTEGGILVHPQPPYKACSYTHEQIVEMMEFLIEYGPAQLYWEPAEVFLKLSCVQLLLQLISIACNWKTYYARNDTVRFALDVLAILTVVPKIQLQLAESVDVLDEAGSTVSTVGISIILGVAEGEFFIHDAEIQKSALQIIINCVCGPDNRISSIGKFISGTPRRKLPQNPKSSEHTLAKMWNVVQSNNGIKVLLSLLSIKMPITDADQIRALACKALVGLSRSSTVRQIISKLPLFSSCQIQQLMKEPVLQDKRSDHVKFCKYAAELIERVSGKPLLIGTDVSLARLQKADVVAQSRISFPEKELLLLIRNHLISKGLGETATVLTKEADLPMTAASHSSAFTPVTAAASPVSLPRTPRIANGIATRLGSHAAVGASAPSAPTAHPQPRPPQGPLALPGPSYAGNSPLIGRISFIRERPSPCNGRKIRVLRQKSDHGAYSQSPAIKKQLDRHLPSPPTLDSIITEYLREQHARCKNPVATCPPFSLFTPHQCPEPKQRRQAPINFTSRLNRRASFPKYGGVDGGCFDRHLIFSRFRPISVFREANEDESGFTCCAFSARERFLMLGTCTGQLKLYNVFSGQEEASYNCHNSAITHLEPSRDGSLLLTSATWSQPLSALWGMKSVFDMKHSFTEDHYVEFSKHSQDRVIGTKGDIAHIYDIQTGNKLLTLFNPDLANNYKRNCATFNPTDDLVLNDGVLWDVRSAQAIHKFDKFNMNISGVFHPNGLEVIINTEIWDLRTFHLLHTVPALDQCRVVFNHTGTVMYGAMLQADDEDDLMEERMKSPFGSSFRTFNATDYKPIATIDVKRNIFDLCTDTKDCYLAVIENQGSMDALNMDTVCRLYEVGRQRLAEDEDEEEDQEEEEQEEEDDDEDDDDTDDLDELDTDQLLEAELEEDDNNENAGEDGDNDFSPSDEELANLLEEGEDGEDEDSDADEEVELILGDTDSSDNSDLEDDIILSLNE
target | setting | SYPRO Orange fluorescence [a.u.]
WDR5 | 25.4 °C | 12900
WDR5 | 84.61 °C | 51700
WDR5 | 46 °C | 15500
WDR5 | 70.61 °C | 17000
DCAF1 | 85.81 °C | 39300
DCAF1 | 29.6 °C | 9470
WDR5 | 65.01 °C | 14000
WDR5 | 25.6 °C | 12900

Series 3 — action: degrader; method: automated immunoblot (Jess); cells: HCC1569; time: 24 h
Target: Membrane-associated tyrosine- and threonine-specific cdc2-inhibitory kinase (PKMYT1, Homo sapiens, UniProt Q99640)
Residues (Q99640 1-499): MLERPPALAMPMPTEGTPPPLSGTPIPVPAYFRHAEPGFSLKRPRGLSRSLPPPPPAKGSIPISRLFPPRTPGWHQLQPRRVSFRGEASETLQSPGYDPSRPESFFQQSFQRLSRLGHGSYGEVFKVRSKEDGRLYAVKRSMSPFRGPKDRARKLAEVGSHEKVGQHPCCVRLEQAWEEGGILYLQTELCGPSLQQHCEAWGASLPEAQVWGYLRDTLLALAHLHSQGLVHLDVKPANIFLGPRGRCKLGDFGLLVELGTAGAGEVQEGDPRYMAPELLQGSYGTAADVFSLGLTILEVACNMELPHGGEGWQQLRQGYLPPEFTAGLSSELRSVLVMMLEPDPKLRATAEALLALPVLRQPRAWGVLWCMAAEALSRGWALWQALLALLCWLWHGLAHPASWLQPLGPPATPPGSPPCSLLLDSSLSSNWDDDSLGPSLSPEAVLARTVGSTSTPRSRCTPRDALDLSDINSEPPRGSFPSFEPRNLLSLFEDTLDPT
Structure (SMILES) | DC50 [nM]
Cc1ccc(O)c(C)c1-c1cnc2[nH]c(-c3cnc(N4CC5(CC(CN6CCN(c7ccc(NC8CCC(=O)NC8=O)cc7F)CC6)C5)C4)nc3)cc2c1C#N (stereo not shown) | 0.3
Cc1ccc(O)c(C)c1-c1cnc2[nH]c(-c3cnc(N4CCC(CN5CCN(c6cc7c(cc6F)c(N6CCC(=O)NC6=O)nn7C)CC5)CC4)nc3)cc2c1C#N | 0.4
Cc1ccc(O)c(C)c1-c1cnc2[nH]c(-c3cnc(N4CCC(CN5CCN(c6ccc7c(c6)C(=O)N(C6CCC(=O)NC6=O)C7=O)CC5)CC4)nc3)cc2c1C#N (stereo not shown) | 0.5
Cc1ccc(O)c(C)c1-c1cnc2[nH]c(-c3cnc(N4CCC(CN5CCN(c6ccc(NC7CCC(=O)NC7=O)c(F)c6)CC5)CC4)nc3)cc2c1C#N (racemic) | > 1000
Cc1ccc(O)c(C)c1-c1cnc2[nH]c(-c3cnc(N4CCC(CN5CCC(c6ccc(NC7CCC(=O)NC7=O)cc6F)CC5)CC4)nc3)cc2c1C#N (stereo not shown) | 0.5
Cc1ccc(O)c(C)c1-c1cnc2[nH]c(-c3cnc(N4CCC5(CC4)CC(N4CCN(c6ccc(NC7CCC(=O)NC7=O)cc6F)CC4)CO5)nc3)cc2c1C#N (stereo not shown) | 0.3

Series 4
SMILES: Cc1ncsc1-c1ccc(C(CO)NC(=O)C2CC(O)CN2C(=O)C(C(C)C)n2cc(-c3ccc(COc4c(-c5c(C)c(F)cc6[nH]ncc56)c(C5CC5)cc5c(N6CC7CC6CN7)nc(OC6CCOCC6)nc45)cc3)nn2)cc1 (stereo not shown)
system | setting | tumour volume
ASPC1 xenograft, mouse | 30 mg/kg once weekly, day 11 | 195 mm3 and 211 mm3 and 184 mm3 and 189 mm3 and 156 mm3
mouse, PK-59 xenograft | 10 mg/kg, day 7 | 397 mm3 and 382 mm3 and 434 mm3 and 436 mm3 and 301 mm3
HPAC xenograft, mouse | 30 mg/kg twice weekly, day 7 | 197 mm3 and 196 mm3 and 185 mm3 and 247 mm3 and 269 mm3
mouse, lung LXFA sample B PDX | 30 mg/kg twice weekly, day 7 | 170 mm3 and 104 mm3 and 127 mm3 and 38.8 mm3 and 103 mm3 and 56 mm3 and 62.2 mm3 and 84.1 mm3
KP-4 xenograft, mouse | 30 mg/kg twice weekly, day 0 | 192 mm3 and 243 mm3 and 221 mm3 and 176 mm3 and 209 mm3
mouse, PK-59 xenograft | 30 mg/kg, day 0 | 241 mm3 and 309 mm3 and 268 mm3 and 334 mm3 and 310 mm3
mouse, PK-59 xenograft | 1 mg/kg, day 14 | 828 mm3 and 913 mm3 and 821 mm3 and 892 mm3 and 991 mm3

Series 5
SMILES: COCC1CC2C(CCC3C(O)CCC32)c2ccc(O)cc21 (stereo not shown)
cell line | assay | setting | how to read | mRNA level ratio
SK-OV-3 | microarray, measured: GZMK | 25 µM | relative to: untreated | 1.23
A549 | DNA microarray, measured: ACTB | 25 µM | relative to: untreated cells | 1.06 and 1.07 and 1.01 and 1.04
SK-OV-3 | DNA microarray, measured: KIF20A | 100 µM | relative to: untreated cells | 0.98 and 0.991 and 1.05 and 0.951 and 0.931
A549 | DNA microarray, measured: KIF20A | 100 µM | relative to: untreated cells | 0.824 and 0.853 and 0.832 and 0.841 and 0.844
A549 | microarray, measured: MCM6 | 100 µM | relative to: untreated | 0.915
SK-OV-3 | DNA microarray, measured: MCM7 | 100 µM | relative to: untreated cells | 0.774
PANC-1 | DNA microarray, measured: MCM7 | 25 µM | relative to: untreated cells | 1.11
A549 | microarray, measured: GZMK | 100 µM | relative to: untreated | 1
A549 | DNA microarray, measured: CCL8 | 100 µM | relative to: untreated cells | 1
A549 | microarray, measured: AURKA | 25 µM | relative to: untreated | 1.1
SK-OV-3 | DNA microarray, measured: TMEM108 | 100 µM | relative to: untreated cells | 1.06
PANC-1 | microarray, measured: MCM6 | 25 µM | relative to: untreated | 1.52
SK-OV-3 | DNA microarray, measured: TMEM108 | 25 µM | relative to: untreated cells | 1.11
SK-OV-3 | DNA microarray, measured: GINS1 | 100 µM | relative to: untreated cells | 0.789
PANC-1 | DNA microarray, measured: ACTB | 100 µM | relative to: untreated cells | 0.525 and 0.515 and 0.489 and 0.51
A549 | DNA microarray, measured: ACTB | 100 µM | relative to: untreated cells | 0.806 and 0.852 and 0.811 and 0.789 and 0.832
A549 | DNA microarray, measured: C6 | 100 µM | relative to: untreated cells | 165
SK-OV-3 | microarray, measured: CCL11 | 100 µM | relative to: untreated | 406
PANC-1 | microarray, measured: CDC25B | 100 µM | relative to: untreated | 1.12

Other studies, line by line
MPO: Myeloperoxidase (MPO, Homo sapiens, UniProt P05164)
Sequence of UniProt P05164 (whole entry, looked up): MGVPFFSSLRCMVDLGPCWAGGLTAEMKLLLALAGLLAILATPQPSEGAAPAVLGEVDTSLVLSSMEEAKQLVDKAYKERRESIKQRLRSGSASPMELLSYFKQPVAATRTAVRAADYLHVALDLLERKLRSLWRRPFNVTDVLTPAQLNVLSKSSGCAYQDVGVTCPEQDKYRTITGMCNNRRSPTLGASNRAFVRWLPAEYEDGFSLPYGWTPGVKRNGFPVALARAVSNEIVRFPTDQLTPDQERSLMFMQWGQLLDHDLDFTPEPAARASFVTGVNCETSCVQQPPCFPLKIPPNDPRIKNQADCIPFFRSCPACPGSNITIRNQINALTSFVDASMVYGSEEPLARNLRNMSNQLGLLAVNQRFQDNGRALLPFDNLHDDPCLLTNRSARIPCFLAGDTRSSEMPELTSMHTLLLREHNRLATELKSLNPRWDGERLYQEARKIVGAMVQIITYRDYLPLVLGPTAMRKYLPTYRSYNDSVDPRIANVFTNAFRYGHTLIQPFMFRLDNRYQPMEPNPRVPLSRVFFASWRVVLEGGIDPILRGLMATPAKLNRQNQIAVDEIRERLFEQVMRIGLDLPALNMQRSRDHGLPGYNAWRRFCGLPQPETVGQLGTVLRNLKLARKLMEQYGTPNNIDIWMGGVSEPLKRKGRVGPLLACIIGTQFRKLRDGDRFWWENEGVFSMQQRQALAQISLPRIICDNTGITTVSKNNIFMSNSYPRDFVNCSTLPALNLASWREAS
SMILES | target | assay | system | setting | endpoint | value
NC/C(=C\F)COc1cccc(Cn2c(=S)[nH]c(=O)c3[nH]cnc32)c1 | Myeloperoxidase (Mus musculus, UniProt P11247) | ELISA, measured: myeloperoxidase | mice, zymosan or thioglycolate peritonitis, peritoneal lavage | 30 mg/kg | protein level | 2170 ng/mL and 2620 ng/mL and 2140 ng/mL
C=C(CN)COc1cccc(Cn2c(=S)[nH]c(=O)c3[nH]cnc32)c1 | MPO | enzyme activity, inhibitor, fluorescence | – | 0.1111 µM | inhibition | 87.9%
CC(C)(C)NC(=O)c1ccc(OC/C(=C/F)CN)cc1 | MPO | enzyme activity, inhibitor, fluorescence | – | 41.2 nM | inhibition | -9.85% and -17% and -8.13%
O=c1[nH]c(=S)n(C[C@H]2CCCO2)c2nc[nH]c12 | MPO | enzyme activity | – | 0.0137 µM | inhibition | 24% and 1.39% and 27.7% and 17.9% and 23% and 1.26% and 2.22%
